Measured values from different studies.
Parts stem from different laboratories: compare values within a part only.
Chain of UniProt P22607 (whole entry, looked up): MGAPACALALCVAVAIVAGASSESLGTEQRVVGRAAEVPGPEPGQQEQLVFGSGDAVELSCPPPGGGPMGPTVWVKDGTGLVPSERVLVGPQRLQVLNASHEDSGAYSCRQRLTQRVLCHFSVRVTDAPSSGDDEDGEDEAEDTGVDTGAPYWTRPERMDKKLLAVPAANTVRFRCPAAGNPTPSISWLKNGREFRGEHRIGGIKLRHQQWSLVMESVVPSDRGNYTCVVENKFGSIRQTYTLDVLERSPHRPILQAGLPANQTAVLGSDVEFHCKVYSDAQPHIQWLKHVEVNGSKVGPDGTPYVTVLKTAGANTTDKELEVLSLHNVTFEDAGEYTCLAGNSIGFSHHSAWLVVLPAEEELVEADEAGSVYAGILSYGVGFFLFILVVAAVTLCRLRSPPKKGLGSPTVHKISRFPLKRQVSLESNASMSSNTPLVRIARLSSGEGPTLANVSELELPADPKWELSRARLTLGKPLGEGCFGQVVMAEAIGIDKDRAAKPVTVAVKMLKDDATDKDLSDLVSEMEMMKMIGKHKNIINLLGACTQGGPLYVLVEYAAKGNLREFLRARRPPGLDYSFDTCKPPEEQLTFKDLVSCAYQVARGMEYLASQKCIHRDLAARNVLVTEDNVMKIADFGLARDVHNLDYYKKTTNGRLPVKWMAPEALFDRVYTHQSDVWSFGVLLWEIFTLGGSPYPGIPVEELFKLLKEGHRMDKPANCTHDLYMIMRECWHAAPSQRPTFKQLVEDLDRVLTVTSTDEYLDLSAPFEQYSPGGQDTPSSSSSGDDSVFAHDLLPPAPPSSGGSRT

Study 1
Target: PABPC1L2, full length, GST fusion (mouse, UniProt A0ABA7IW68)
Technique: RNAcompete
Molecule type: RNA
Medium: in vitro
Concentration: 20 nM
Notes: 7-mer, probes averaged, single round
Reference: mean of 7-mers
Direction: higher = stronger binding
Construct (chain): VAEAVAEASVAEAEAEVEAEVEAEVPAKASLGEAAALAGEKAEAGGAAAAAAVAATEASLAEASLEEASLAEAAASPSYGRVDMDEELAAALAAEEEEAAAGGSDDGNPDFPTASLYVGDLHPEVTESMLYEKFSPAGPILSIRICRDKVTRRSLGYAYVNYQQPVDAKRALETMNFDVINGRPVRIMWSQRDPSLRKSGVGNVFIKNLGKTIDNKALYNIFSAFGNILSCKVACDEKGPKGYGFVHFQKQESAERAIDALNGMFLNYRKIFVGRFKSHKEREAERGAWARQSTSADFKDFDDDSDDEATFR
`AAAGCAU` gave a 7-mer Z-score of 0.914.
With `GCAUGCG` the 7-mer Z-score was -0.266.
For `AUGGUUA`, the 7-mer Z-score was -0.141.
With `AAAGAUC` the 7-mer Z-score was 1.55.
The 7-mer Z-score of `GAACAGC` is reported as -0.00833.
`UAAGUAU` gave a 7-mer Z-score of -0.132.
`GACUAAU` gave a 7-mer Z-score of -0.229.
With `UGGCACA` the 7-mer Z-score was -0.0355.

Study 2
Partner: ARF18 482-602 (Arabidopsis thaliana, UniProt Q9C5W9)
Technique: two-hybrid
Reference: out of 4 tests
Direction: higher = firmer interaction
B1: IAA32 (Arabidopsis thaliana, UniProt Q8RYC6); chain MDPNTPADFFKGSSKFHTYYSQTKKGGGVIDLGLSLRTIQHETYLPPARMIGLDGYGELIDWSQPSYNSITQLKSEDTGHQRLAQGYYNNEGESRGKYAYVKVNLDGLVVGRKVCLVDQGAYATLALQLNDMFGMQTVSGLRLFQTESEFSLVYRDREGIWRNVGDVPWKEFVESVDRMRIARRNDALLPF
B2: ARF5 788-902 (Arabidopsis thaliana, UniProt P93024); chain ATPRVRTYTKVQKTGSVGRSIDVTSFKDYEELKSAIECMFGLEGLLTHPQSSGWKLVYVDYESDVLLVGDDPWEEFVGCVRCIRILSPTEVQQMSEEGMKLLNSAGINDLKTSVS
B3: ARF16 570-670 (Arabidopsis thaliana, UniProt Q93YR9); chain SPCSKKVHDASGLETGHCKVFMESDDVGRTLDLSVLGSYEELSRKLSDMFGIKKSEMLSSVLYRDASGAIKYAGNEPFSEFLKTARRLTILTEQGSESVVV
B4: ARF2 727-859 (Arabidopsis thaliana, UniProt Q94JM3); chain TKTNSSRSCTKVHKQGIALGRSVDLSKFQNYEELVAELDRLFEFNGELMAPKKDWLIVYTDEENDMMLVGDDPWQEFCCMVRKIFIYTKEEVRKMNPGTLSCRSEEEAVVGEGSDAKDAKSASNPSLSSAGNS
B5: IAA28 (Arabidopsis thaliana, UniProt Q9XFM0); chain MEEEKRLELRLAPPCHQFTSNNNINGSKQKSSTKETSFLSNNRVEVAPVVGWPPVRSSRRNLTAQLKEEMKKKESDEEKELYVKINMEGVPIGRKVNLSAYNNYQQLSHAVDQLFSKKDSWDLNRQYTLVYEDTEGDKVLVGDVPWEMFVSTVKRLHVLKTSHAFSLSPRKHGKE
B6: ARF14 497-605 (Arabidopsis thaliana, UniProt Q9LQE8); chain SPTEIQSKQFSSTRTCTKVQMQGVTIGRAVDLSVLNGYDQLILELEKLFDLKGQLQARNQWEIAFTNNEEDKMLVGEDPWPEFCNMVKKIFIYSKEEVKNLKSRKSLSS
B7: IAA31 (Arabidopsis thaliana, UniProt Q8H174); chain MEVSNSCSSFSSSSVDSTKPSPSESSVNLSLSLTFPSTSPQREARQDWPPIKSRLRDTLKGRRLLRRGDDTSLFVKVYMEGVPIGRKLDLCVFSGYESLLENLSHMFDTSIICGNRDRKHHVLTYEDKDGDWMMVGDIPWDMFLETVRRLKITRPERY
B8: IAA33 (Arabidopsis thaliana, UniProt Q9FKM7); chain MNSFEPQSQDSLQRRFHQDNSTTQQPRDTTTPFIPKPASKNHNNSNSSSGAAGRSFQGFGLNVEDDLVSSVVPPVTVVLEGRSICQRISLDKHGSYQSLASALRQMFVDGADSTDDLDLSNAIPGHLIAYEDMENDLLLAGDLTWKDFVRVAKRIRILPVKGNTRQVKRNE
Construct (chain): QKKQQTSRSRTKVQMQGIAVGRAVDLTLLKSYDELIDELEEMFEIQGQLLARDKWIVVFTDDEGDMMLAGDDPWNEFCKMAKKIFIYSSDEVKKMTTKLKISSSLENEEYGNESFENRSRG
`B1 (IAA32)` has a positive tests of 2.
With `B2 (ARF5 788-902)` the positive tests was 1.
The positive tests of `B3 (ARF16 570-670)` is reported as 0.
`B4 (ARF2 727-859)` gave a positive tests of 0.
The positive tests of `B5 (IAA28)` is reported as 1.
`B6 (ARF14 497-605)` has a positive tests of 0.
`B7 (IAA31)` has a positive tests of 0.
`B8 (IAA33)` has a positive tests of 2.

Study 3
Target: Prothrombin, mature alpha-thrombin (F2, Homo sapiens, UniProt P00734)
Technique: aptamer microarray, sandwich
Molecule type: DNA with 2'F-ANA
Medium: in vitro
Concentration: 200 nM
Notes: whole 15-mer aptamer, many near background
With: Cy3 exosite-II aptamer, 400 nM
Direction: higher = stronger binding
Strand: GGTTGGTGTGGTTGG
`2'F-ANA at 3 6 8 10 11 12 13 14 15`: “mean fluorescence intensity” 326 a.u.
`2'F-ANA at 1 2 4 5 7 8 9 11 13 15`: “mean fluorescence intensity” 48.9 a.u.
`2'F-ANA at 1 3 5 6 8 9 10 11 14 15`: “mean fluorescence intensity” 52.8 a.u.
`2'F-ANA at 5 6 8 11 15`: “mean fluorescence intensity” 61.7 a.u.
`2'F-ANA at 4 6 9 11 12 13 14` — result for “mean fluorescence intensity”: 81.7 a.u.
For `2'F-ANA at 1 3 4 9 10 14 15`, “mean fluorescence intensity” read 50.9 a.u.
`2'F-ANA at 3 5 7 8 12 13 14`: “mean fluorescence intensity” 81.5 a.u.
`2'F-ANA at 1 4 5 6 8 10 15` — result for “mean fluorescence intensity”: 46.9 a.u.

Single results of other studies
`O=C(NS(=O)(=O)c1ccc(NCC2CCOCC2)c([N+](=O)[O-])c1)c1ccc(N2CCN(Cc3ccc(C(F)(F)F)cc3-c3ccc(Cl)cc3)CC2)cc1Oc1cnc2[nH]ccc2c1` gave a remaining binding of 100% (Fibroblast growth factor receptor 3 (FGFR3, Homo sapiens, UniProt P22607); cell-free assay, competition with immobilised ligand; 1 µM).

Repeated from above (study 1):
For `AUGGUUA`, the 7-mer Z-score was -0.141.
With `AAAGAUC` the 7-mer Z-score was 1.55.
